Published values of several laboratories.
Lines come from different studies, so protocols differ. ± marks the error that the study gave. ≈ marks a conversion by molar mass, not a printed value.

| Compound | target or system | test | test system | setting | how to read | measurement | value |
| --- | --- | --- | --- | --- | --- | --- | --- |
| COc1ccc(CNc2nc(N3CCC[C@H]3CO)ncc2C(=O)NNC(=O)c2cnc(N3CCC[C@H]3CO)nc2NCc2ccc(OC)c(Cl)c2)cc1Cl | Salmonella typhimurium |  | TA97a | 500 µg/plate, 48 h, together with: rat liver S9 |  | revertant count | 137 ± 12 |
| CCCCCCCCC(=O)NCc1ccc(O)c(OC)c1 | mouse mAb 1-D6 | antibody binding, indirect competitive ELISA |  | together with: coating antigen 6-OVA |  | IC50 | 0.153 µg/mL (≈ 0.52 µM) |
| O=C(O)CCC(NP(=O)(O)OCCC[C@@H](NC(=O)CCC(NC(=O)c1ccc([18F])cc1)C(=O)O)C(=O)O)C(=O)O (stereo partly shown) | CWR22Rv1 tumour model |  | host not given, kidney | intravenous, 2 h, tumour-bearing |  | tracer uptake | 9.97 %ID/g |
| CCC(=O)N(C)c1ccc(Cl)c(Cl)c1 | Salmonella typhimurium | Ames test | TA100 | 0.05 mg/plate, without S9 |  | revertants | 86 ± 11.9 revertants/plate |
| N=C(N)NCCC[C@@H]1NC(=O)[C@H](CCCCNC(=O)CNC(=O)CNC(=O)CNC(=O)CC[C@H](NC(=O)CCOCCOCCOCCOCCNC(=O)CC[C@H](NC(=O)CN2CCN(CC(=O)O)CCN(CC(=O)O)CCN(CC(=O)O)CC2)C(=O)NCCOCCOCCOCCOCCC(=O)N[C@@H](CCC(=O)NCC(=O)NCC(=O)NCC(=O)NCCCC[C@@H]2NC(=O)[C@@H](Cc3ccccc3)NC(=O)[C@H](CC(=O)O)NC(=O)CNC(=O)[C@H](CCCNC(=N)N)NC2=O)C(=O)NCC(=O)NCC(=O)NCC(=O)NCCCC[C@@H]2NC(=O)[C@@H](Cc3ccccc3)NC(=O)[C@H](CC(=O)O)NC(=O)CNC(=O)[C@H](CCCNC(=N)N)NC2=O)C(=O)NCC(=O)NCC(=O)NCC(=O)NCCCC[C@@H]2NC(=O)[C@@H](Cc3ccccc3)NC(=O)[C@H](CC(=O)O)NC(=O)CNC(=O)[C@H](CCCNC(=N)N)NC2=O)NC(=O)[C@@H](Cc2ccccc2)NC(=O)[C@H](CC(=O)O)NC(=O)CNC1=O [indium-111 labelled] |  |  | female athymic nude mouse, U-87 MG tumour | intravenous, 3 µCi, 0.5 h, U-87 MG glioma xenograft |  | tumour uptake | 11.4 %ID/g |
| CC[C@H](C)C(=O)N1CCC(NC(=O)Nc2ccc(OC(F)(F)F)c(F)c2)CC1 |  |  | healthy volunteers | oral, 8 mg single dose |  | subjects with feeling hot TEAE | 16.7% |
| CCCC[C@H](NC(=O)CNC(=O)CNC(=O)c1ccc(NN)nc1)C(=O)N[C@H]1CC(=O)NCCCC[C@@H](C(N)=O)NC(=O)[C@H](Cc2c[nH]c3ccccc23)NC(=O)[C@H](CCCNC(=N)N)NC(=O)[C@@H](Cc2ccccc2)NC(=O)[C@H](Cc2c[nH]cn2)NC1=O [technetium-99m labelled] |  |  | C57 mouse, B16/F1 melanoma | 2 h, together with: NDP-MSH blockade | baseline: tumour over blood | uptake ratio | 1.88 |
| N=C(N)NCCC[C@@H]1NC(=O)[C@H](CCCCNC(=O)CC[C@H](NC(=O)CCOCCOCCOCCOCCNC(=O)CC[C@H](NC(=O)CN2CCN(CC(=O)O)CCN(CC(=O)O)CCN(CC(=O)O)CC2)C(=O)NCCOCCOCCOCCOCCC(=O)N[C@@H](CCC(=O)NCCCC[C@@H]2NC(=O)[C@@H](Cc3ccccc3)NC(=O)[C@H](CC(=O)O)NC(=O)CNC(=O)[C@H](CCCNC(=N)N)NC2=O)C(=O)NCCCC[C@@H]2NC(=O)[C@@H](Cc3ccccc3)NC(=O)[C@H](CC(=O)O)NC(=O)CNC(=O)[C@H](CCCNC(=N)N)NC2=O)C(=O)NCCCC[C@@H]2NC(=O)[C@@H](Cc3ccccc3)NC(=O)[C@H](CC(=O)O)NC(=O)CNC(=O)[C@H](CCCNC(=N)N)NC2=O)NC(=O)[C@@H](Cc2ccccc2)NC(=O)[C@H](CC(=O)O)NC(=O)CNC1=O [indium-111 labelled] |  |  | athymic nude mice, female, U-87 MG glioma xenograft, tumour and muscle | intravenous, 1 h | baseline: tumour over muscle | tumour to tissue ratio | 11.8 ± 3.58 |
| CN[C@](C)(C[18F])C(=O)O | DU-145 tumour model |  | host not given, heart | 1 h, tumour-bearing |  | tracer uptake | 2.2 %ID/g |
| Cc1nc(=O)c2cc(CN(C)c3ccc(C(=O)NCc4cccc(C(=O)O)c4)s3)ccc2[nH]1 | Mycobacterium tuberculosis |  | H37Rv | 10 µM, 24 h |  | uptake from medium | 55.4 ± 7.4% |
| O=C(O)CCC(NP(=O)(O)OCCC[C@@H](NC(=O)CCC(NC(=O)CCCCCNC(=O)CCCCCNC(=O)c1ccc([18F])cc1)C(=O)O)C(=O)O)C(=O)O (stereo partly shown) | PC-3 tumour model |  | host not given, muscle | intravenous, 2 h, tumour-bearing |  | tracer uptake | 0.03 %ID/g |
| CCN(Cc1ccccc1)C(=O)CCc1nc(CN2CCN(C(=O)Cc3ccc(OC)c(OC)c3)CC2)no1 | KCNQ5 (Homo sapiens, UniProt Q9NR82) | potassium current, opener, whole-cell patch clamp | transfected cells | 10 µM | baseline: control | current fold increase | 1.8 ± 0.14 |
| O=C(O)CCC(NP(=O)(O)OCCC[C@@H](NC(=O)CCC(NC(=O)CCCCCNC(=O)c1ccc([18F])cc1)C(=O)O)C(=O)O)C(=O)O (stereo partly shown) | PC-3 tumour model |  | host not given, heart | intravenous, 2 h, tumour-bearing |  | tracer uptake | 0.21 %ID/g |
| COC(=O)CC1C2CCCN3CCCC(CN1C(=O)c1ccc(Cl)cc1)C23 (stereo not shown) | HEK293T |  |  |  |  | CC50 | > 200 µM |
| O=C1C(Cl)=C(Cl)C(=O)c2ccccc21 | CRFK | cell growth or viability, ATP luminescence |  | 72 h |  | CC50 | 36.7 µM |
| C[C@@](O)(C(F)F)[C@H](NC(=O)c1ccc(C#CC#CC2CC2)cc1)C(=O)NO |  |  | rat, plasma | intravenous, 40 mg/kg |  | AUC(0-inf) | 24000 ng·h/mL |
| COc1cc(C(=O)NCCOCCOCCOCCNC(=O)c2ccc([18F])nc2)ccc1NC(=O)C1NC(CC(C)(C)C)C(C#N)(c2ccc(Cl)cc2F)C1c1cccc(Cl)c1F (stereo not shown) | HepG2 tumour model |  | host not given, heart | 30 min, tumour-bearing |  | tracer uptake | 3.52 %ID/g |
| CN(C)CC1CCCCC1(O)c1cccc(O)c1 (stereo not shown) | P-glycoprotein |  | Caco-2 TC7 | 1 µM, 3 h, pH 6.8 apical, 7.4 basolateral, together with: cyclosporin A 10 µM |  | efflux ratio | 2.9 |
| CC(CCC(=O)NCC(=O)O)C1CCC2C3CCC4CC(OC5OC(C(=O)O)C(O)C(O)C5O)CCC4(C)C3CC(O)C12C (stereo not shown) | SLCO1B1 (Homo sapiens, UniProt Q9Y6L6, N130D/P155T) | substrate | HEK293 expressing OATP1B1 variant | 1 µM, 2 min | baseline: wild-type HEK293 cells | uptake ratio | 142 ± 5 |

Some of these lines once more:
| Compound | target or system | test | test system | setting | how to read | measurement | value |
| --- | --- | --- | --- | --- | --- | --- | --- |
| O=C(O)CCC(NP(=O)(O)OCCC[C@@H](NC(=O)CCC(NC(=O)c1ccc([18F])cc1)C(=O)O)C(=O)O)C(=O)O (stereo partly shown) | CWR22Rv1 tumour model |  | host not given, kidney | intravenous, 2 h, tumour-bearing |  | tracer uptake | 9.97 %ID/g |
| CCC(=O)N(C)c1ccc(Cl)c(Cl)c1 | Salmonella typhimurium | Ames test | TA100 | 0.05 mg/plate, without S9 |  | revertants | 86 ± 11.9 revertants/plate |
